Measurements of several laboratories.
Protocols differ between the studies behind these lines. “And” joins repeats or separate records; there may be more than shown. ± gives the spread as reported.
DDB1: DNA damage-binding protein 1 (DDB1, Homo sapiens, UniProt Q16531)
UniProt Q16531, sequence (whole entry, looked up): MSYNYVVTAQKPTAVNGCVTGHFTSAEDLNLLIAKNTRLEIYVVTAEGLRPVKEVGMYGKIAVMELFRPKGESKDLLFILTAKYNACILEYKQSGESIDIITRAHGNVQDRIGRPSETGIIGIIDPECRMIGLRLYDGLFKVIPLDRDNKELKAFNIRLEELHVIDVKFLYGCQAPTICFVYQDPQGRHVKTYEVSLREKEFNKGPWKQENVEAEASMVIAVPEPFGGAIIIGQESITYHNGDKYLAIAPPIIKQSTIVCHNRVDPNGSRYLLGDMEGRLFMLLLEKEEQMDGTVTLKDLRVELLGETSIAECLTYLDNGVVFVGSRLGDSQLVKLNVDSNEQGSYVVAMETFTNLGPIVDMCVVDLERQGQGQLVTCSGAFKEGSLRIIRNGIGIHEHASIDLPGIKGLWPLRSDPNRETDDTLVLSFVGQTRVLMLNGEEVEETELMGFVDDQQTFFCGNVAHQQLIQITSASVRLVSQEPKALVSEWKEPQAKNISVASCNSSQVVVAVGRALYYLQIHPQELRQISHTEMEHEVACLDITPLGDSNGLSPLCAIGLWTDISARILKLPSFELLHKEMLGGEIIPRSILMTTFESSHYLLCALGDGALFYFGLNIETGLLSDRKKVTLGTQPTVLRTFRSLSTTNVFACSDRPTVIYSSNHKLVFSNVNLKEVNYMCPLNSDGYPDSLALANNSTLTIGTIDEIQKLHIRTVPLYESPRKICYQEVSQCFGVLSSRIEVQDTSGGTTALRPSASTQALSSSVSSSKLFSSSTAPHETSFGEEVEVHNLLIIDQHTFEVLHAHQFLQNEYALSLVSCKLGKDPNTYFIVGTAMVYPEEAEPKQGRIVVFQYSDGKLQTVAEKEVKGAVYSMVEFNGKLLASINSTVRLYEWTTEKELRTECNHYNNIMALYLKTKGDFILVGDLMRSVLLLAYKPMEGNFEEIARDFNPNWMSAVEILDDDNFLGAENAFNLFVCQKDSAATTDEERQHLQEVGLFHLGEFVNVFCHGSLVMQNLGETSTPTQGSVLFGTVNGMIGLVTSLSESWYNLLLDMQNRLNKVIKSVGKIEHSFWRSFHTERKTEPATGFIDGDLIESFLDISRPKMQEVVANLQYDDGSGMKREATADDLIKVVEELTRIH
TOP2A: DNA topoisomerase 2-alpha (TOP2A, Homo sapiens, UniProt P11388)
UniProt P11388, sequence (whole entry, looked up): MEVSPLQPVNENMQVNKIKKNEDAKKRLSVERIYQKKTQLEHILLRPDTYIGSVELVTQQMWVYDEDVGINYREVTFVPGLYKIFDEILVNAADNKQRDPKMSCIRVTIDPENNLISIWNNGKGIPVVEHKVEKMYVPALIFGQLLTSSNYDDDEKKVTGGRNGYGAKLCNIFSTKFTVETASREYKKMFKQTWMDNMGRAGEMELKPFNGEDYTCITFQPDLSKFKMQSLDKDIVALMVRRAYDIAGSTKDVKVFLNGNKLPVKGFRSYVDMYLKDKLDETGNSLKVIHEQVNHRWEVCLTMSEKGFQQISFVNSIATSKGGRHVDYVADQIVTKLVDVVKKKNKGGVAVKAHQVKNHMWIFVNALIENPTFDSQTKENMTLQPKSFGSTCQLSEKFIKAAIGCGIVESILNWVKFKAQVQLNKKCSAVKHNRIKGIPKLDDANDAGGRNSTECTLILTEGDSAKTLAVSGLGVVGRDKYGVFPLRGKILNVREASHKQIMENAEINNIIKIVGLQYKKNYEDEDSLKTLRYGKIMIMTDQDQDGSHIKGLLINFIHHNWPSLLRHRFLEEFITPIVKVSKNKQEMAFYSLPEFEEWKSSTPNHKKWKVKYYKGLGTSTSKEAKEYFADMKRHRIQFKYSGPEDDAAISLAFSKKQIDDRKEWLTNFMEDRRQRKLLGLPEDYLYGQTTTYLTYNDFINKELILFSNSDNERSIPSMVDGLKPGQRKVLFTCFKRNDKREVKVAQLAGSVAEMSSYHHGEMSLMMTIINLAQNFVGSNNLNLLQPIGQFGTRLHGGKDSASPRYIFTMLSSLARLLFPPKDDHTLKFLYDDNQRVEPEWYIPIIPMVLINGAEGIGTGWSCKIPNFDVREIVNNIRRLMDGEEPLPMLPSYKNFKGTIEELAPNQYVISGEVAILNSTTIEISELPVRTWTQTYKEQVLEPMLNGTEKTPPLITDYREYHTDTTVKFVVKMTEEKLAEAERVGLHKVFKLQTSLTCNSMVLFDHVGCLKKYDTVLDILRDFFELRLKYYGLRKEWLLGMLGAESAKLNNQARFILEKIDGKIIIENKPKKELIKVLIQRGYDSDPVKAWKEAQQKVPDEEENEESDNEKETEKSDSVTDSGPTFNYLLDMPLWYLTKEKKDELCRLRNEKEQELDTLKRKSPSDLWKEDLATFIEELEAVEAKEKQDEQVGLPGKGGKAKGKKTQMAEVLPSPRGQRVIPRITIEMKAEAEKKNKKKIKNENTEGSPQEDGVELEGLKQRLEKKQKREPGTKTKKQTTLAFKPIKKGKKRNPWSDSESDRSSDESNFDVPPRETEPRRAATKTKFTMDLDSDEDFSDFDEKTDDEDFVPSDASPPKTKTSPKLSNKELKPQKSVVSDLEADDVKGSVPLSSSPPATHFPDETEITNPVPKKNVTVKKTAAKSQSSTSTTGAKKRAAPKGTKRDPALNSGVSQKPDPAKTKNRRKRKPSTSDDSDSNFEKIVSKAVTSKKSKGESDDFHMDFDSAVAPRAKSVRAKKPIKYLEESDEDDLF
BEST2: Bestrophin-2a (BEST2, Homo sapiens, UniProt Q8NFU1)
UniProt Q8NFU1, sequence (whole entry, looked up): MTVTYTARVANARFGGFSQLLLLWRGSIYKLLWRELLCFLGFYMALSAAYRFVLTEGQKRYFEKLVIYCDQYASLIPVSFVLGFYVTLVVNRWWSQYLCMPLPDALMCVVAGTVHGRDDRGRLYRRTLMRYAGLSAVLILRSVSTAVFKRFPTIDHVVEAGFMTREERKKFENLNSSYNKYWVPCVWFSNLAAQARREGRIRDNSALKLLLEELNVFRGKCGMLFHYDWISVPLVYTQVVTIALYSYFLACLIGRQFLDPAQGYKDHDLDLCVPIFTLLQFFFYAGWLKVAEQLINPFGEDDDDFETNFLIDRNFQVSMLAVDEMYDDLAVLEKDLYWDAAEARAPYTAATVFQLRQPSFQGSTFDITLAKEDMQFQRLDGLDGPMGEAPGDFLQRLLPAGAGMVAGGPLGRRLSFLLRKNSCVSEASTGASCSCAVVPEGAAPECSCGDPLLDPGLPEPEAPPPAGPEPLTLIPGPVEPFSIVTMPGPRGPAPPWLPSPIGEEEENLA
MKC1: Mitogen-activated protein kinase MKC1 (MKC1, Candida albicans, UniProt P43068)
UniProt Q80VM9, sequence (whole entry, looked up): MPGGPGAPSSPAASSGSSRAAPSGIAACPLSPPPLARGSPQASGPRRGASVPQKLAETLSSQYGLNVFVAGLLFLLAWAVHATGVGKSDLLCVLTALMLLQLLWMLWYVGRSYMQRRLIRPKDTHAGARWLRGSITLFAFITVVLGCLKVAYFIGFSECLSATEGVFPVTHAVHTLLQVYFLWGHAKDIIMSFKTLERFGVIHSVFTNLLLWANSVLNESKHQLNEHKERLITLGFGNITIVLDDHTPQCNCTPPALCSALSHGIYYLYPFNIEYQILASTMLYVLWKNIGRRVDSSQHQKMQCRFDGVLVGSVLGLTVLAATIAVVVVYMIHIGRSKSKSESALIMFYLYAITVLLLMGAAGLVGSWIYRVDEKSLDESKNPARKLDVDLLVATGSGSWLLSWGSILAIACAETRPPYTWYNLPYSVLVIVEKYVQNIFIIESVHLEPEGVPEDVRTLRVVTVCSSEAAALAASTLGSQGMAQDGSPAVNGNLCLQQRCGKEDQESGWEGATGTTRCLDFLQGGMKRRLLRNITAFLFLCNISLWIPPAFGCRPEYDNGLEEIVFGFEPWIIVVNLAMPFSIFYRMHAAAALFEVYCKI
UniProt P43068, sequence (whole entry, looked up): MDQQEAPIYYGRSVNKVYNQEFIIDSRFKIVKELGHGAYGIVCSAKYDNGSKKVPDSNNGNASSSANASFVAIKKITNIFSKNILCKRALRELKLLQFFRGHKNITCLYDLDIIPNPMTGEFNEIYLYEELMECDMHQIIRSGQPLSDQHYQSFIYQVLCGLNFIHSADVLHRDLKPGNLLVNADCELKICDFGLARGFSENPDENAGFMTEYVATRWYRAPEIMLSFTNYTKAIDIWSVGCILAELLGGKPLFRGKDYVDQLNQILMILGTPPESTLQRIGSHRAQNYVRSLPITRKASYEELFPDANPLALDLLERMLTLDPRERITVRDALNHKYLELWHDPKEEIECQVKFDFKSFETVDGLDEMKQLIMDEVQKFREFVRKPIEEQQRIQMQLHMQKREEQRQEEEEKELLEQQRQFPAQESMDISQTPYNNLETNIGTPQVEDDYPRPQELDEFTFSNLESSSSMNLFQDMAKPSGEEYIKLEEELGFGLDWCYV
UniProt Q96RI1, sequence (whole entry, looked up): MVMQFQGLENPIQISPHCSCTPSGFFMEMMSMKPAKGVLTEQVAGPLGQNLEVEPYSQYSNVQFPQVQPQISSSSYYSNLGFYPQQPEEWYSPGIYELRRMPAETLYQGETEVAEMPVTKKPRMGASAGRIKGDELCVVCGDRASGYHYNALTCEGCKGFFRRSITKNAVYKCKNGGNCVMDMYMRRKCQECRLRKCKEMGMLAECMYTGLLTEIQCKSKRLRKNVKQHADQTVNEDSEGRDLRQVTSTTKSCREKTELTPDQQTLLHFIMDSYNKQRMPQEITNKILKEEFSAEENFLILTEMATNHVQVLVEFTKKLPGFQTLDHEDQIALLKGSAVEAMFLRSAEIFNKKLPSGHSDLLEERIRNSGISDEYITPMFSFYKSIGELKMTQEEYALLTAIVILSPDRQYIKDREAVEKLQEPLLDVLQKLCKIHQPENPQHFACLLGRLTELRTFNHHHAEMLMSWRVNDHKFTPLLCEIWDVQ
UniProt Q16774, sequence (whole entry, unmodified, looked up): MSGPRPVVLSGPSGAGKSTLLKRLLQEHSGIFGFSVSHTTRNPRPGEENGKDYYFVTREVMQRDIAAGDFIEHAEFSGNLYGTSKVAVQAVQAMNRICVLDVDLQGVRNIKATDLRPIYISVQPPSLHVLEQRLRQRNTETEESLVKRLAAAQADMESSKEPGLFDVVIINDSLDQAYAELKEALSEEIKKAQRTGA

Compound | tested on | assay | test system | setting | how to read | endpoint | value
COCCC(=O)N1CCC(Oc2ccccc2)C1 (stereo not drawn) | DDB1 | binding, affinity selection mass spectrometry |  |  | baseline: other proteins in batch | log fold enrichment | 0.203
Cc1cc(NC2=CC(=O)N(C3CCC(=O)NC3=O)C2=O)cc(C(C)(C)NCCc2ccc(C(F)(F)F)c(Cl)c2)c1 (stereo not drawn) | Cereblon/Ikaros (Homo sapiens, UniProt Q13422+Q96SW2) | protein degradation, degrader, HiBiT luminescence | Jurkat |  |  | Dmax | 41%
O=c1cc(-c2ccc(OS(=O)(=O)[O-])cc2)oc2cc(OS(=O)(=O)[O-])cc(OCc3cccc(COc4cc(OS(=O)(=O)[O-])cc5oc(-c6ccc(OS(=O)(=O)[O-])cc6)cc(=O)c45)n3)c12.[Na+].[Na+].[Na+].[Na+] | Neutrophil elastase (ELANE, Homo sapiens, UniProt P08246) |  |  | 500 nM, together with: chromogenic substrate |  | Vmax | 30.3 ± 0.9 mAU/min
O=C(CCCCCCC(=O)Nc1ccccc1)NO | HDAC8 (Homo sapiens, UniProt Q9BY41) | ITC | Tris-HCl buffer | concentration not given, 283 K |  | binding stoichiometry | 0.85
Cc1cccc(N2CC(C(=O)O)CC2=O)c1 (stereo not drawn) | DDB1 | binding, affinity selection mass spectrometry |  |  | baseline: other proteins in batch | fold enrichment | 1.05
CC(C)c1ccc(CSc2nc(SCc3ccc4sccc4c3)[nH]c(=O)n2)cc1 | TOP2A | decatenation |  | 125 µM, replicate 2 |  | decatenated DNA | 0%
CC(C)c1noc2ncc(C(=O)c3ccccc3O)cc12 | Otop1 (Mus musculus, UniProt Q80VM9) | alkali-evoked current, whole-cell patch-clamp |  | 10 µM, pH 8.5, third pulse, after pH 8.5 alone |  | normalized current I3/I1 | 1.05 and 1.18 and 0.814
O=C(O)c1ccc([N+](=O)[O-])cc1 | BEST2 | whole-cell patch clamp | HEK293 transiently expressing channel | concentration not given, membrane potential -100 mV |  | current density | -309 pA/pF and -379 pA/pF and -257 pA/pF and -116 pA/pF and -321 pA/pF
COc1cc(O)c2c(c1)oc(=O)c1c3cc(O)c(O)cc3oc21 | MAL12 (Saccharomyces cerevisiae S288c, UniProt P53341) | circular dichroism |  | molar ratio 1:2 |  | β-Sheet content | 42.8%
CC(C)c1cccc2c(-c3ccccc3)cc(/C=C/c3ccc(C(=O)O)cc3)nc12 | RARA (Homo sapiens, UniProt P10276) | transactivation, antagonist, reporter gene |  | up to 3300 nM, together with: 9-cis-retinoic acid at EC80, 180 nM |  | antagonist activity | inactive
NNc1ccc2ccccc2c1 | Secernin-3 (Homo sapiens, UniProt Q0VDG4) | gel-based ABPP | HEK-293T lysate |  | baseline: IC50 SCRN2 over Secernin-3 | selectivity ratio | 10 fold
O=C(O)C(Cc1c[nH]c2ccccc12)N1C(=O)c2ccccc2C1=O (stereo not drawn) | HBL-1 |  |  | 0.1 µM, 120 h |  | viability | 108%
Cl.c1cc(N2CCC(N3CCOCC3)CC2)ccc1Nc1ccc2ncc(OCC3CCNCC3)nc2c1 | Protein AF-9, with DOT1L (Homo sapiens, UniProt P42568) | inhibitor, AlphaLISA |  | 10 µM |  | activity | inactive
Nc1nc2c(ncn2[C@@H]2O[C@H](COP(=O)(O)O)[C@@H](O)[C@H]2O)c(=O)[nH]1 | GUK1 (Homo sapiens, UniProt Q16774, T83A) | enzyme activity, NADH-coupled |  |  |  | kcat | 31.9 s⁻¹
Nc1ncnc2c1ncn2[C@@H]1O[C@H](COP(=O)(O)CP(=O)(O)OP(=O)(O)O)[C@@H](O)[C@H]1O | P2X purinoceptor 1 (P2RX1, Homo sapiens, UniProt P51575, F188L) | saturation binding | HEK293 | 130 nM |  | specific binding | 6760 CCPM
O=c1nc(SCc2cc(F)cc(C(F)(F)F)c2)nc(SCc2ccc3ncsc3c2)[nH]1 | TOP2A | decatenation |  | 15.6 µM |  | mean decatenated DNA | 93.7%
CN(C)C(=O)C(CCN1CCC(O)(c2ccc(Cl)cc2)CC1)(c1ccccc1)c1ccccc1 | Calcium-activated potassium channel subunit alpha-1, with LRRC26 γ1 subunit (KCNMA1, Homo sapiens, UniProt Q12791) | BK current, inhibitor, inside-out patch clamp | excised membrane patch | 30 µM, γ1 coexpressed, individual fits, together with: nominally 0 Ca2+ cytosolic | baseline: without loperamide | normalized Gmax | 0.117 ± 0.036
Nc1ncnc2c1ncn2[C@@H]1O[C@H](CO[P@](=O)(O)O[P@](=O)(O)O[P@@](=O)(O)S)[C@@H](O)[C@H]1O | uncharacterized protein (Thermomonospora curvata, UniProt D1ABX1) | ITC |  | 500 µM, pH 7.5, 25 °C |  | binding stoichiometry | 1.2 ± 0.3 sites
O=c1nc(SCc2cc(F)cc(C(F)(F)F)c2)nc(SCc2nc3ccccc3[nH]2)[nH]1 | TOP2A | decatenation |  | 125 µM, replicate 2 |  | decatenated DNA | 0%
COc1ccc(CNC(=O)c2ccc(CNCc3cnc4nc(N)nc(N)c4n3)cc2)cc1OC | Pteridine reductase 1 (Leishmania major, UniProt Q01782) |  |  | hDHFR weight 10 | baseline: LmPTR1, LmDHFR over hDHFR, 1.0 selective, 0.0 non-selective | partition index | 0.87
C=C1CN(S(=O)(=O)c2ccc(C)cc2)CCCN(Cc2ccccc2)CCCN(S(=O)(=O)c2ccc(C)cc2)C1 | Protein transport protein Sec61 subunit alpha isoform 1 (Homo sapiens, UniProt P61619) | refers to: control signal peptide-FLuc reporter | HEK293 | 0.0043 mM, 6 h |  | FLuc/RLuc ratio | 1.14

Compound | tested on | assay | test system | setting | how to read | endpoint | value
Oc1ccccc1-c1n[nH]cc1-c1ccnc2ccccc12 | MKC1 | kinase binding, MIB/MS competition | Candida albicans lysate | 1 µM | baseline: DMSO, negative = stronger binding | log2 fold change | 0
c1ccc(CCCCCOCCc2ccc3[nH]cnc3c2)cc1 | ATP2A2 (Sus scrofa, UniProt P11607) | ATPase activity |  |  |  | concentration of maximal activation | 10 µM
Nc1nc(-c2ccc(Cl)c(S(N)(=O)=O)c2)cs1 | CA4 (Homo sapiens, UniProt P22748) | ITC |  | concentration not given, 25 °C |  | intrinsic binding ΔG | -12.3 kcal/mol
Cc1nc(CSc2nc(SCc3ccc(C(F)(F)F)cc3)nc(=O)[nH]2)cs1 | TOP2A | decatenation |  | 31.25 µM, replicate 2 |  | decatenated DNA | 65.1%
C(/C=C/c1sc2c3ccccc3ccc2[n+]1CCCc1ccccc1)=C1/Sc2c(ccc3ccccc23)N1CCCc1ccccc1.[I-] | PRMT6 (Homo sapiens, UniProt Q96LA8) | inhibitor, filter binding |  | together with: R4 peptide substrate |  | Hill coefficient | 0.99
CCCCCCCCC(=O)c1cc(O)c(O)c(O)c1 | Bile acid receptor (NR1H4, Homo sapiens, UniProt Q96RI1) | reporter gene, Gal4 hybrid reporter |  | 10 µM | baseline: vehicle | activation | 1.77 fold
CC(C(=O)Nc1c(F)cccc1F)N1CCN(c2ccccc2)CC1 (stereo not drawn) | Short transient receptor potential channel 7 (Mus musculus, UniProt Q9WVC5) | ion current, GCaMP6 calcium imaging | HEK293 transfected | 20 µM, unit not given, together with: 50 µM OAG | baseline: control | peak Ca2+ influx | 1.04 ± 0.03
Cc1ccc(NC(=O)/C=C/c2cccs2)cc1 | Chrna7 (Rattus norvegicus, UniProt Q05941) | ion current, positive allosteric modulator |  | together with: acetylcholine 30 µM |  | Hill coefficient | 1.2 ± 0.2
O=C(O)C1=CCNCC1 | BEST2 | whole-cell patch clamp | HEK293 transiently expressing channel | concentration not given, membrane potential -60 mV |  | current density | -135 pA/pF and -281 pA/pF and -116 pA/pF and -149 pA/pF and -103 pA/pF
NCCCC(=O)O | SLC6A6 (Homo sapiens, UniProt P31641, L306A) | binding, microscale thermophoresis |  | 15.6 µM, room temperature, together with: 50 nM labelled protein | higher = more binding | normalised MST signal | -0.0604
Nc1ncnc2c1ncn2[C@@H]1O[C@H](CO[P@](=O)(O)O[P@](=O)(O)O[P@@](=O)(O)S)[C@@H](O)[C@H]1O | GUK1 (Homo sapiens, UniProt Q16774, S13A) | binding, ITC |  |  |  | ΔG | -5.43 kcal/mol
O=c1nc(SCc2ccc(C(F)(F)F)cc2)nc(SCc2ccc3sccc3c2)[nH]1 | TOP2A | decatenation |  | 125 µM, replicate 1 |  | decatenated DNA | 0.17%
CC[C@@H]1[C@H](F)C(=O)N[C@@H]1COc1nccc2cc(C(N)=O)c(OC)cc12 | CHEK2 (Homo sapiens, UniProt O96017) | ATP-site probe binding, ActivX profiling | THP-1 cell lysate | 0.01 mM, Lys2 site |  | inhibition | -4.8%
CN(Cc1cnc2nc(N)nc(N)c2n1)c1ccc(C(=O)N[C@@H](CCC(=O)O)C(=O)O)cc1 | Proton-coupled folate transporter (Homo sapiens, UniProt Q96NT5) | transport | transfected cells | pH 5.5, 37 °C |  | uptake | ~85%
COc1nc(-c2cccc(-c3ccccc3)c2C)ccc1CNCCNC(=O)CCCCCCCCCCCN1CCN(CCNC(=O)c2cc3c(=O)n4cccc(C)c4nc3n(CCc3cccs3)c2=N)CC1 | CD274 (Homo sapiens, UniProt Q9NZQ7) | degrader, western blot | HL-60 | 1 µM |  | degradation | 34.6 ± 3.6%
CCN1CCC[C@H]1CNC(=O)c1c(O)c(Cl)cc(Cl)c1OC | Adhesion G-protein coupled receptor F3 (ADGRF3, Homo sapiens, UniProt Q8IZF5) | β-arrestin recruitment, TANGO luminescence, refers to: GPR113 |  | concentration not given | baseline: basal luminescence | log2 fold change | 0.09
C=CC(=O)N1CCC[C@@H](n2nc(-c3ccc(Oc4ccccc4)cc3)c3c(N)ncnc32)C1 | FES (Homo sapiens, UniProt P07332) |  |  | 0.1 µM |  | remaining activity | 55%
C=CC(=O)N1CCC(COCC(=O)N2CCN(c3nc(-c4cnc(N)nc4C(F)F)nc(N4CCOC[C@@H]4C)n3)CC2)CC1 | PI4KB (Homo sapiens, UniProt Q9UBF8) | KINOMEscan |  | 1 µM |  | remaining binding | 100%
O=c1ccc2nc3ccc(O[C@@H]4O[C@H](CO)[C@@H](O)[C@H](O)[C@H]4O)cc3oc-2c1 | GBA1 (Homo sapiens, UniProt P04062, R534H) | substrate |  |  | baseline: cpd over 4MU-β-glc | catalytic efficiency ratio | ~700
O=c1c(O)c(-c2ccc(O)c(O)c2)oc2cc(O)cc(O)c12 | FOXO3 (Homo sapiens, UniProt O43524) | binding, fluorescence quenching | PBS | 298 K |  | Ka | 133000 M⁻¹
c1ccc(-c2n[nH]cc2-c2ccnc3ccccc23)nc1 | MKC1 | kinase binding, competitor, MIB/MS competition, refers to: MKC1 | Candida albicans cell lysate | 10 µM | baseline: DMSO | log2 fold change | 1.25

For quick reference, copied from above:
Compound | tested on | assay | test system | setting | how to read | endpoint | value
C=CC(=O)N1CCC[C@@H](n2nc(-c3ccc(Oc4ccccc4)cc3)c3c(N)ncnc32)C1 | FES (Homo sapiens, UniProt P07332) |  |  | 0.1 µM |  | remaining activity | 55%
C=CC(=O)N1CCC(COCC(=O)N2CCN(c3nc(-c4cnc(N)nc4C(F)F)nc(N4CCOC[C@@H]4C)n3)CC2)CC1 | PI4KB (Homo sapiens, UniProt Q9UBF8) | KINOMEscan |  | 1 µM |  | remaining binding | 100%
O=c1ccc2nc3ccc(O[C@@H]4O[C@H](CO)[C@@H](O)[C@H](O)[C@H]4O)cc3oc-2c1 | GBA1 (Homo sapiens, UniProt P04062, R534H) | substrate |  |  | baseline: cpd over 4MU-β-glc | catalytic efficiency ratio | ~700
O=c1c(O)c(-c2ccc(O)c(O)c2)oc2cc(O)cc(O)c12 | FOXO3 (Homo sapiens, UniProt O43524) | binding, fluorescence quenching | PBS | 298 K |  | Ka | 133000 M⁻¹
